Assay results from different studies.
Protocols differ between the studies behind these lines. Numbers after ± are the reported error. In brackets after ≈: the same amount, converted by molar mass.

Substance	assay	test system	setting	how to read	endpoint	result
neuropeptide Y	–	rat, plasma	intratesticular, 10 µg/kg, added: hCG	–	cumulative testosterone release	8.5 ± 1.7 ng/mL
C[C@@H]1N(C)C(C)(C)CO[C@@]1(O)c1cccc(Cl)c1	nicotine antinociception blockade, antagonist, tail-flick test	mouse	15 min pretreatment, added: nicotine 2.5 mg/kg subcutaneous	–	AD50	0.016 mg/kg
COC(=O)[C@@H]1C=C(OC(=O)c2ccccc2)C(=O)[C@H]2[C@@]1(C)CC[C@H]1C(=O)O[C@H](c3ccoc3)C[C@]21C	agonist	C57BL/6 mice male	dose not given, added: naloxone pretreatment	–	antinociception	inhibited
COc1ncc(-c2nc(C(=O)NC(=N)N)c(N)nc2N2CCCCCC2)cn1	–	Sprague-Dawley rat	iv, 1.5 mg/kg, 6 h, added: acetazolamide 25 mg/kg	relative to: acetazolamide alone	urine volume	no effect
COc1cc(-c2cc(=O)c3c(O)cc(O)cc3o2)ccc1O	ABTS scavenging, absorbance	–	15 min	–	IC50	87.1 µM
CC[C@H](C)[C@@H]([C@@H](CC(=O)N1CCC[C@H]1[C@H](OC)[C@@H](C)C(=O)N[C@H](C)[C@@H](O)c1ccccc1)OC)N(C)C(=O)[C@@H](NC(=O)[C@@H](NC)C(C)C)C(C)C	–	MDA-MB-231, mice, orthotopic xenograft	0.2 mg/kg, 4 doses, time all animals sacrificed	–	survival time	≤ 19 days after therapy
Cn1cc(C2=C(c3coc4ccc(F)cc34)C(=O)NC2=O)c2cc3c(cc21)OCO3	–	male nude mice A498 xenograft	intraperitoneal, 20 mg/kg thrice weekly, 4 weeks	–	tumour weight	327 ± 171 mg
N#N	benzocaine metabolism	human erythrocytes in plasma	concentration not given, 37 °C, added: benzocaine 3 µg/mL	–	inhibition	no inhibition
Cc1cc(O)cc(C)c1C[C@H](N)C(=O)N[C@@H]1CCCc2ccc(Cc3ccc4ccccc4c3)cc21	warm water tail withdrawal	C57BL/6 mice	intraperitoneal, up to 10 mg/kg cumulative	–	antinociception	inactive
CN1CCCC2C(c3ccccc3)C(C3=NCCCC3)C(c3ccccc3)CC21 (stereo not drawn)	[3H]-dopamine release	rat striatal slices	–	relative to: vehicle	lowest effective concentration	100 µM
O=S(=O)(F)Cc1ccccc1	bait peptide cleavage, inhibitor, MALDI-TOF/TOF	Medicago truncatula culture fluid	1 mM, 2 h, 4 °C	–	protease cleavage	inhibited
O=C1C2=C(CCN(Cc3ccccc3)C2)N2CCN=C2N1Cc1ccc(C(F)(F)F)cc1	–	PDX AML cells, NSG mice	250 nM, 36 h, ex vivo treated cells engrafted	–	median survival	82 days
CC[C@H](C)[C@H](NC(=O)[C@H](Cc1ccc(O)cc1)NC(=O)[C@@H]1CCCN1C(=O)[C@H](CCCNC(=N)N)NC(=O)[C@H](CCCNC(=N)N)NC(=O)[C@@H]1CCCN1C(=O)[C@H](CCCCN)NC(=O)[C@H](CSC1CC(=O)N(CCNC(=O)CCCCC[N+]2=C(C=CC=CC=C3N(CC)c4ccc5c(S(=O)(=O)O)cc(S(=O)(=O)[O-])cc5c4C3(C)C)C(C)(C)c3c2ccc2c(S(=O)(=O)O)cc(S(=O)(=O)O)cc32)C1=O)NC(=O)CN1CCN(CC(=O)O)CCN(CC(=O)O)CCN(CC(=O)O)CC1)C(=O)N[C@@H](CC(C)C)C(=O)O (stereo partly drawn) [copper-64 labelled]	PET imaging	HT-29 xenograft, male BALB/c nu/nu mice	intravenous, 4 h, added: 100 µg unlabelled neurotensin	–	tumour uptake	0.42 ± 0.05 %ID/g
NCC(=O)Nc1cncc(-c2nn3c(=O)cc(N4CCNCC4)nc3s2)c1	platelet function, VerifyNow iso-TRAP	human	subcutaneous, 0.11 mg/kg, 15 min	–	inhibition	76%
Cc1sc2c(c1C)C(c1ccc(Cl)cc1)=N[C@@H](CC(=O)OC(C)(C)C)c1nnc(C)n1-2	–	mice, HD-MB03 intracranial xenograft	intraperitoneal, 50 mg/kg daily, added: ribociclib 100 mg/kg oral daily	–	median survival	21 days
CC(=O)N1CC[C@@H](NC(=O)[C@@H](N)Cc2c(C)cc(O)cc2C)c2cc(Cc3cccc4ccccc34)ccc21	warm water tail withdrawal	C57BL/6 mice	intraperitoneal, up to 10 mg/kg cumulative	–	antinociception	inactive
CN[C@H](CC(C)C)C(=O)N[C@H]1C(=O)N[C@@H](CC(N)=O)C(=O)N[C@H]2C(=O)N[C@H]3C(=O)N[C@H](C(=O)N[C@H](C(=O)O)c4cc(O)cc(O)c4-c4cc3ccc4O)[C@H](O)c3ccc(c(Cl)c3)Oc3cc2cc(c3O[C@@H]2O[C@H](CO)[C@@H](O)[C@H](O)[C@H]2O[C@H]2C[C@](C)(N)[C@H](O)[C@H](C)O2)Oc2ccc(cc2Cl)[C@H]1O	–	Japanese patients with SSTI	intravenous, 1 g twice daily, 7 to 14 days, test-of-cure, MITT-MRSA	–	microbiological success	47.4%
C/C=C(/C)C(=O)O[C@H]1C(C)=C[C@]23C(=O)[C@@H](C=C(CO)[C@@H](O)[C@]12O)[C@H]1[C@@H](C[C@H]3C)C1(C)C	–	mouse, B16 melanoma	topical, 0.1% gel, two consecutive days	–	median survival time	16 days

Substance	assay	test system	setting	how to read	endpoint	result
C(#Cc1cc(C#CCCC[n+]2cccc(-c3ccccc3)c2)c(C#CCCC[n+]2cccc(-c3ccccc3)c2)cc1C#CCCC[n+]1cccc(-c2ccccc2)c1)CCC[n+]1cccc(-c2ccccc2)c1.[Br-].[Br-].[Br-].[Br-]	paw pressure test	rat, sham-operated paw	intraperitoneal, 3600 µg/kg, peak effect	–	vocalization threshold	250 ± 9.69 g
CC(=O)N1CC[C@@H](NC(=O)[C@@H](N)Cc2c(C)cc(O)cc2C)c2cc(Cc3ccccc3)ccc21	warm water tail withdrawal	C57BL/6 mice	intraperitoneal, up to 10 mg/kg cumulative	–	antinociception	inactive
N=C(N)NC(=O)c1nc(-c2cc3ccccc3o2)c(N2CCCCCC2)nc1N	–	Sprague-Dawley rat, urine	iv, 1.5 mg/kg, 6 h, added: acetazolamide 25 mg/kg	relative to: acetazolamide alone	sodium excretion	no effect
CSCC[C@@H]1NC(=O)[C@H](CC(C)C)NC(=O)[C@H](CCCCN)NC(=O)[C@H](CCC(N)=O)NC(=O)[C@H](CCCNC(=N)N)NC(=O)[C@H](CCCCN)NC(=O)[C@H](CCCNC(=N)N)NC(=O)[C@H](CCC(N)=O)NC(=O)[C@H](C(C)C)NC(=O)[C@@H](NC(=O)[C@@H]2CCCN2C(=O)[C@H](C)NC(=O)[C@H](CC(C)C)NC(=O)[C@H](CC(C)C)NC(=O)[C@H](C)NC(=O)[C@H](CC(C)C)NC(=O)[C@H](CC(C)C)NC(=O)[C@@H](NC(=O)[C@H](C)NC(=O)[C@@H]2CCCN2C(=O)[C@H](CC(C)C)NC(=O)[C@H](CC(C)C)NC(=O)[C@H](C)NC(=O)[C@@H](NC(=O)[C@H](C)NC(=O)[C@H](C)N)C(C)C)C(C)C)CSSC[C@@H](C(=O)O)NC(=O)[C@@H]2CCCN2C1=O	–	Ldlr-/- mice, female, Western diet, aortic root	ip, 0.7 mg/mouse twice daily, 4 weeks, first weeks of diet	relative to: saline	lesion reduction	~50%
COc1cccc(O)c1-c1cc(=O)c2c(O)c(OC)c(OC)c(OC)c2o1	–	C57BL/6 mouse, aristolochic acid I renal fibrosis	oral gavage, 30 or 60 mg/kg, day 14, added: aristolochic acid I 10 mg/kg i.p. single	relative to: aristolochic acid I group	blood creatinine	decreased
COc1ccc2c3c1O[C@H]1C[C@@H](O)C=C[C@@]31CCN(C)C2	adaptive tracking performance, PK-PD modelling	healthy elderly humans, plasma	–	–	EC50	0.172 µg/mL (≈ 0.599 µM)
CC[C@H](CC[C@@H](C)[C@H]1CC[C@H]2[C@@H]3CC=C4C[C@@H](O)CC[C@]4(C)[C@H]3CC[C@]12C)C(C)C	ABTS scavenging, absorbance	–	15 min	–	IC50	110 µM
CC(NC(C)(C)C)C(=O)c1cccc(Cl)c1 (stereo not drawn)	nicotine antinociception, antagonist, hot-plate test	mouse	added: nicotine 2.5 mg/kg s.c.	–	AD50	15 mg/kg
O=C(c1ccc(F)cc1)N1CCc2nc(COc3ccccc3)oc2C1	long-term potentiation	rat hippocampal SC-CA1 synapse	10 µM, 20 min preincubation, 35 min post-TBS, added: threshold theta burst stimulation	relative to: baseline	fEPSP slope	110 ± 4%
C=C(C)[C@H]1Cc2c(ccc3c2O[C@@H]2COc4cc(OC)c(OC)cc4[C@@H]2C3=O)O1	complex I-driven respiration	cortical mitochondria, Fischer 344 rat	10 pM	–	onset of reduced oxygen consumption	12 min
Oc1cc2c(cc1O)C(c1ccccc1)CNCC2 (stereo not drawn)	cocaine-appropriate responding, drug discrimination	male rats trained on cocaine	intraperitoneal, AFR, added: cocaine 10 mg/kg training dose	–	dose for full substitution	32 mg/kg
Oc1cc(Cl)c(-c2cc(Cl)ccc2Cl)cc1Cl	elevated plus maze	Sprague-Dawley rat	dose not given	–	arm entries and open-arm distance	no effect
CC(C)(NC(=O)O[C@@H]1CN2CCC1CC2)c1csc(-c2ccc(F)cc2)n1	–	sample A patients, plasma	oral, 15 mg once daily, week 52, added: imiglucerase	–	glucosylceramide median	1.1 µg/mL
C[C@@H]1NC(C)(C)CO[C@@]1(O)c1cccc(Br)c1	nicotine-induced hypothermia, antagonist	mouse	15 min pretreatment, added: nicotine 2.5 mg/kg s.c.	–	AD50	1.7 mg/kg
CCCN1CCC[C@@H]2Cc3n[nH]cc3C[C@H]21	cocaine-appropriate responding, drug discrimination	male rats trained on cocaine	intraperitoneal, AFR, added: cocaine 10 mg/kg training dose	–	dose for full substitution	0.061 to 0.18 mg/kg
C[C@@H]1NC(C)(C)CO[C@@]1(O)c1ccc(-c2ccccc2)cc1	nicotine antinociception blockade, antagonist, tail-flick test	mouse	15 min pretreatment, added: nicotine 2.5 mg/kg subcutaneous	–	AD50	0.021 mg/kg
O=C1[O][Pt]2([NH][C@@H]3CCCC[C@H]3[NH]2)[O]C1=O (relative stereo)	–	BALB/c mice, CT26 tumour	oral, 10 mg/kg once daily, 21 days	relative to: control group	tumour growth inhibition	34.8%
ALWKTMLKKLGTMALHAGKAALGAAADTISQGTQ	–	peptide, lipid vesicles	1 µM, 8 h, pH 7.2, peptide to lipid ratio 0.005, added: 300 mM NaCl	–	terbium leakage	~80%

Repeated from above:
Substance	assay	test system	setting	how to read	endpoint	result
CC(NC(C)(C)C)C(=O)c1cccc(Cl)c1 (stereo not drawn)	nicotine antinociception, antagonist, hot-plate test	mouse	added: nicotine 2.5 mg/kg s.c.	–	AD50	15 mg/kg
O=C(c1ccc(F)cc1)N1CCc2nc(COc3ccccc3)oc2C1	long-term potentiation	rat hippocampal SC-CA1 synapse	10 µM, 20 min preincubation, 35 min post-TBS, added: threshold theta burst stimulation	relative to: baseline	fEPSP slope	110 ± 4%
C=C(C)[C@H]1Cc2c(ccc3c2O[C@@H]2COc4cc(OC)c(OC)cc4[C@@H]2C3=O)O1	complex I-driven respiration	cortical mitochondria, Fischer 344 rat	10 pM	–	onset of reduced oxygen consumption	12 min
